{"data": "Published values of several laboratories", "note": "Lines come from different studies, so protocols differ. Several values in a cell are separate wells, animals, samples, runs or records. ± gives the spread as reported."}
{"SMILES": "C=CCNc1c(O)cc2c(O)c1C[C@@H](C)C[C@H](OC)[C@H](O)[C@@H](C)/C=C(\\C)[C@H](OC(N)=O)[C@@H](OC)/C=C\\C=C(/C)C(=O)N2", "system": "unresectable or metastatic sarcoma", "conditions": "intravenous, 225 mg/m^2, grade 3-4 lab change", "measurement": "patients with ALT increase", "result": "33%"}
{"SMILES": "Cn1ncc(-c2nc(N[C@H]3CC[C@H](N)CC3)ncc2Cl)c1CC1CC1", "test": "phase I dose escalation", "system": "human patients", "conditions": "dose not given, treatment-related grade 3 or higher", "measurement": "alanine aminotransferase increase incidence", "result": "3.2%"}
{"SMILES": "Cc1cccc(N=Nc2ccc3[nH]cc(CCN(C)C)c3c2)c1", "test": "light irradiation", "system": "solution", "conditions": "added: light 530 nm", "measurement": "trans isomer at photostationary state", "result": "85%"}
{"SMILES": "CO[C@H]1C[C@@H]2CC[C@@H](C)[C@@](O)(O2)C(=O)C(=O)N2CCCC[C@H]2C(=O)O[C@H]([C@H](C)C[C@@H]2CC[C@@H](OC(=O)NCCOCCOCCOCCOCCOCCOCCOCCOCCC(=O)N3CCc4cc(Cn5nc(-c6ccc7oc(N)nc7c6)c6c(N)ncnc65)ccc4C3)[C@H](OC)C2)C[C@@H](O)[C@H](C)/C=C(\\C)[C@@H](O)[C@@H](OC)C(=O)[C@H](C)C[C@H](C)/C=C/C=C/C=C/1C", "test": "phase 1 dose escalation, measured: nausea", "system": "advanced solid tumour patients", "conditions": "intravenous, 16 mg weekly, grade ≥3", "measurement": "TRAE incidence", "result": "0%"}
{"SMILES": "N=C(N)NCCC[C@@H](NC(=O)[C@@H](N)Cc1ccccc1)C(=O)N[C@@H](Cc1ccccc1)C(=O)N[C@@H](CCCCN)C(N)=O", "test": "LC-MS", "system": "human", "conditions": "25 mg, 23.83 h", "measurement": "mean fraction excreted in urine", "result": "1.78%"}
{"SMILES": "[O-][S+]1CCc2nc(N3CCC(c4ncc(Cl)cn4)CC3)nc(NC3(CO)CCC3)c21 (stereo not shown)", "system": "healthy male subjects", "conditions": "48 mg single dose, 12.1 (unit not given), after last treatment", "measurement": "haemoglobin", "result": "134 g/L"}
{"SMILES": "Cc1ccc2cc(N3CCC4(O)C(=O)c5cc(C)c(C)cc5N=C34)ccc2n1 (stereo not shown)", "test": "functional observational battery", "system": "rat", "conditions": "concentration not given", "measurement": "physiological reflexes", "result": "no effect"}
{"SMILES": "C[C@]1(CO)Cc2ncn(-c3ccc(C#N)c(Cl)c3)c2C(=O)O1", "test": "measured: abnormal skin odour", "system": "human", "conditions": "40 mg multiple doses, fasted", "measurement": "subjects with drug-related TEAE", "result": "0%"}
{"SMILES": "O=C(O)CCC(CP(=O)(O)O)C(=O)O (stereo not shown)", "system": "rat plasma", "conditions": "4 µg/mL, freeze-thaw cycle 1 at -80 °C", "measurement": "measured concentration", "result": "4.26 ± 0.11 µg/mL"}
{"SMILES": "CCOC(=O)C1=C[C@@H](OC(CC)CC)[C@H](NC(C)=O)[C@@H](N)C1", "test": "non-compartmental analysis", "system": "Sprague-Dawley rats, male, plasma", "conditions": "oral, 30 mg/kg, alone", "measurement": "MRT", "result": "5.9 ± 1.8 h"}
{"SMILES": "CN1CCN(S(=O)(=O)c2cc([N+](=O)[O-])ccc2N(CCOS(C)(=O)=O)CCOS(C)(=O)=O)CC1", "system": "naive NOD/SCID mice, pooled blood", "conditions": "intraperitoneal, 18.8 mg/kg, week 4", "measurement": "sodium", "result": "158 mmol/L"}
{"SMILES": "C[C@@H](NC(=O)N1C(=O)[C@H](Cc2ccnc(N)c2)[C@H]1C(=O)O)C1CCCCC1", "system": "healthy adult Chinese volunteers", "conditions": "continuous intravenous infusion, 0.6 mg/kg/h, 5-day infusion, CTCAE 5.0 grading", "measurement": "incidence of drug-related AEs", "result": "12.5%"}
{"SMILES": "C=CC(=O)Nc1cc(Nc2ncc(C(=O)OC(C)C)c(-c3cn(C)c4ccccc34)n2)c(OC)cc1N(C)CCN(C)C", "system": "pooled safety population", "conditions": "160 mg once daily, three events", "measurement": "fatal ILD/pneumonitis", "result": "1.2%"}
{"SMILES": "CC(C)C[C@H](NC(=O)[C@H](CCCCN)NC(=O)OCC1c2ccccc2-c2ccccc21)C(=O)N[C@H](C(=O)N[C@@H](Cc1ccccc1)C(=O)N[C@@H](Cc1ccccc1)C(=O)N[C@@H](CCCCN)C(=O)NCC(=O)N[C@@H](Cc1ccccc1)C(=O)N[C@@H](C)C(=O)N[C@@H](Cc1c[nH]c2ccccc12)C(=O)N[C@@H](CC(N)=O)C(=O)N[C@H](C(=O)N[C@H]1CSSC[C@@H](C(=O)N[C@@H](Cc2c[nH]cn2)C(=O)N[C@@H](CCCNC(=N)N)C(=O)N[C@@H](CCCNC(=N)N)C(=O)N[C@@H](C)C(=O)N[C@@H](CC(N)=O)C(N)=O)NC(=O)[C@H](C(C)C)NC(=O)[C@H](CCCNC(=N)N)NC(=O)[C@H](C(C)C)NC(=O)CNC(=O)[C@H](CC(N)=O)NC(=O)[C@H](CCCNC(=N)N)NC(=O)[C@H](Cc2ccc(O)cc2)NC(=O)[C@H](C(C)C)NC1=O)C(C)C)C(C)C", "test": "HPLC", "system": "trypsin buffer", "conditions": "4.00 h, 37 °C, added: trypsin 1 % w/v", "measurement": "peptide remaining", "result": "49.2% and 51.6% and 49%"}
{"SMILES": "CC(C)C(=O)OC[C@H]1O[C@@H](n2ccc(NO)nc2=O)[C@H](O)[C@@H]1O", "system": "rat fetus dialysate", "conditions": "250 ng/mL, 6 h, room temperature, high concentration, added: NHC 1000 ng/mL", "measurement": "bench-top stability", "result": "101 ± 1.22%"}
{"SMILES": "CN1CC[C@@H](c2c(O)cc(O)c3c(=O)cc(-c4ccc(C(F)(F)F)cc4Cl)oc23)[C@@H]1CO", "test": "measured: febrile neutropenia", "system": "B-cell malignancies", "conditions": "oral, 100 mg, grade 3 to 4, intermittent dosing", "measurement": "patients with adverse event", "result": "0%"}
{"SMILES": "O=S(=O)(Nc1ccccc1)c1ccc(NC(=S)Nc2ccccc2)cc1", "system": "male mouse, blood", "conditions": "oral, 20 mg/kg daily, 14 days", "measurement": "chloride level", "result": "109 mmol/L"}
{"SMILES": "COc1cc(NC(=O)CCN2CCC(OC(=O)Nc3ccccc3-c3ccccc3)CC2)c(Cl)cc1CNC[C@H](O)c1ccc(O)c2[nH]c(=O)ccc12", "system": "human", "conditions": "oral", "measurement": "absorption rate constant", "result": "0 h⁻¹"}
{"SMILES": "CCc1ccc(CC/C=C/c2ccc3c(c2)C(=O)CC3)cc1", "system": "Sprague-Dawley rat, female", "conditions": "oral, 450 mg/kg/day, 14 days", "measurement": "TC", "result": "2.24 mM"}
{"SMILES": "C=CC(=O)N1CC[C@H](n2nc(C#Cc3cc(OC)cc(OC)c3)c3c(N)ncnc32)C1", "system": "patients with advanced solid tumours", "conditions": "oral, dose not given, Nausea, any grade, QD, added: phosphate-binding therapy", "measurement": "adverse drug reaction incidence", "result": "17.5%"}
{"SMILES": "O=C(c1ccc(F)c(F)c1Nc1ccc(I)cc1F)N1CC(O)([C@@H]2CCCCN2)C1", "system": "patients aged 2 to 6 years", "conditions": "oral, dose not given", "measurement": "related AE dose modification", "result": "10%"}
{"SMILES": "O=C(Nc1ccccc1)C1CCN(C(=O)Oc2cccnc2)CC1", "test": "adverse event reporting", "system": "healthy women", "conditions": "oral, 20 mg, 7 days", "measurement": "subjects with feeling drunk", "result": "7.1%"}
{"SMILES": "CC(=O)c1c(C)c2cnc(Nc3ccc(C4CCN(CCS(C)(=O)=O)CC4)cn3)nc2n(C2CCCC2)c1=O", "system": "rat", "conditions": "acute toxicity", "measurement": "LOAEL", "result": "350 mg/kg"}
{"SMILES": "CCN1[C@@H](C(=O)NC23CCC(C(=O)O)(CC2)CC3)[C@H](c2cccc(Cl)c2F)[C@]2(C(=O)Nc3cc(Cl)ccc32)C12CCCCC2", "system": "patients with advanced solid tumours", "conditions": "oral, dose not given, all doses", "measurement": "Tinnitus incidence", "result": "4.8%"}
{"SMILES": "Cn1cncc1-c1c(F)cncc1NC(=O)c1c(N)nn2cc(F)cnc12", "system": "human patients", "conditions": "oral, 80 mg once daily, 21 days", "measurement": "dose-limiting toxicity platelet decrease", "result": "0%"}
{"SMILES": "Cc1ccc(F)c2cc(C(=O)N[C@@H]3CCC[C@H](N4CC[C@H](N(C)S(C)(=O)=O)C4)C3)[nH]c12", "system": "CD1 mouse", "conditions": "intravenous, 1 mg/kg", "measurement": "Vz", "result": "14.2 L/kg"}
{"SMILES": "O=C1Nc2cc3[nH]nc(-c4ccncc4)c3cc2CN1Cc1ccccc1", "test": "CTCAE v4.03", "system": "advanced solid tumour patients", "conditions": "intravenous, 0.45 mg/kg, schedules 1/2", "measurement": "patients with ≥1 TEAE", "result": "100%"}
{"SMILES": "Cc1ncnc2c1ccn2[C@@H]1C[C@H](Oc2cc(C(F)F)c(F)c3c2CNCC3)[C@@H](O)[C@H]1O", "system": "patients", "conditions": "grade ≥3", "how to read": "relative to: patients", "measurement": "thrombocytopenia incidence", "result": "6%"}
{"SMILES": "O=C(O)CNCP(=O)(O)O", "test": "ultrafiltration", "system": "cow milk whey", "conditions": "200 nM nominal in whole milk", "measurement": "final permeate concentration", "result": "204 nM"}
{"SMILES": "C=CC(=O)Nc1cc(Nc2nccc(Nc3cc(Cl)c(F)cc3C(C)(C)O)n2)c(OC)cc1N1CC[C@@H](N(C)C)C1", "system": "human", "conditions": "oral, dose not given, phase I clinical", "measurement": "patients with adverse event Nausea", "result": "33.3%"}
{"SMILES": "COc1ccc2nc3cc(Cl)ccc3c(Nc3cc(CN4CCCC4)c(O)c(CN4CCCC4)c3)c2n1", "system": "mouse, blood", "conditions": "oral, 57 mg/kg, tolerability, mean", "measurement": "haemoglobin", "result": "109 g/L"}
{"SMILES": "c1ccc2c(c1)ccc1c3ccccc3ccc21", "system": "pooled human liver microsomes", "conditions": "2.5 µM, pH 7.4", "measurement": "metabolism rate", "result": "11.5 pmol/min/mg"}
{"SMILES": "COC[C@@H](CC(C)C)NC(=O)c1ccc(C)c(C)c1", "system": "Hsd:ICR (CD-1) mouse, male, bone marrow", "conditions": "oral, 1352 mg/kg, 48 h", "measurement": "micronucleated PCE per 1000 PCE", "result": 0.3}
{"SMILES": "C1=Cc2nc1cc1ccc([n-]1)c(-c1ccccc1)c1nc(cc3ccc([n-]3)c2-c2ccccc2)C=C1.CC(=O)[O-].[Mn+3]", "test": "LC-MS/MS", "system": "Sprague-Dawley rat, plasma", "conditions": "oral gavage, dose not given, 240 min", "measurement": "plasma concentration", "result": "192 ng/mL and 94 ng/mL"}
{"SMILES": "COc1cc2c(Oc3ccc4[nH]c(C)cc4c3F)ccnc2cc1OCC1(N)CC1", "system": "paediatric refractory sarcoma patients", "conditions": "8 mg", "measurement": "grade 3 QTc prolongation", "result": "0%"}
{"SMILES": "C/C(=N\\C#N)N(C)Cc1ccc(Cl)nc1", "system": "soil", "conditions": "28 days, nominal 1.1", "measurement": "recovery", "result": "5%"}
{"SMILES": "CC(C)[C@H](C(=O)O[C@H](C#N)c1cccc(Oc2ccccc2)c1)c1ccc(Cl)cc1", "test": "IVIVE scaling", "system": "human adult", "measurement": "hepatic intrinsic clearance", "result": "1260 L/h/kg liver"}
{"note": "Repeated from above:"}
{"SMILES": "COC[C@@H](CC(C)C)NC(=O)c1ccc(C)c(C)c1", "system": "Hsd:ICR (CD-1) mouse, male, bone marrow", "conditions": "oral, 1352 mg/kg, 48 h", "measurement": "micronucleated PCE per 1000 PCE", "result": 0.3}
{"SMILES": "C1=Cc2nc1cc1ccc([n-]1)c(-c1ccccc1)c1nc(cc3ccc([n-]3)c2-c2ccccc2)C=C1.CC(=O)[O-].[Mn+3]", "test": "LC-MS/MS", "system": "Sprague-Dawley rat, plasma", "conditions": "oral gavage, dose not given, 240 min", "measurement": "plasma concentration", "result": "192 ng/mL and 94 ng/mL"}
{"SMILES": "COc1cc2c(Oc3ccc4[nH]c(C)cc4c3F)ccnc2cc1OCC1(N)CC1", "system": "paediatric refractory sarcoma patients", "conditions": "8 mg", "measurement": "grade 3 QTc prolongation", "result": "0%"}
{"SMILES": "C/C(=N\\C#N)N(C)Cc1ccc(Cl)nc1", "system": "soil", "conditions": "28 days, nominal 1.1", "measurement": "recovery", "result": "5%"}
{"SMILES": "CC(C)[C@H](C(=O)O[C@H](C#N)c1cccc(Oc2ccccc2)c1)c1ccc(Cl)cc1", "test": "IVIVE scaling", "system": "human adult", "measurement": "hepatic intrinsic clearance", "result": "1260 L/h/kg liver"}
